Experimental data collected from several papers.
Numbered parts are unrelated; each lists some results of a single study. Several values in a cell are separate wells, animals, samples, runs or records.
UniProt Q13976, sequence (whole entry, looked up): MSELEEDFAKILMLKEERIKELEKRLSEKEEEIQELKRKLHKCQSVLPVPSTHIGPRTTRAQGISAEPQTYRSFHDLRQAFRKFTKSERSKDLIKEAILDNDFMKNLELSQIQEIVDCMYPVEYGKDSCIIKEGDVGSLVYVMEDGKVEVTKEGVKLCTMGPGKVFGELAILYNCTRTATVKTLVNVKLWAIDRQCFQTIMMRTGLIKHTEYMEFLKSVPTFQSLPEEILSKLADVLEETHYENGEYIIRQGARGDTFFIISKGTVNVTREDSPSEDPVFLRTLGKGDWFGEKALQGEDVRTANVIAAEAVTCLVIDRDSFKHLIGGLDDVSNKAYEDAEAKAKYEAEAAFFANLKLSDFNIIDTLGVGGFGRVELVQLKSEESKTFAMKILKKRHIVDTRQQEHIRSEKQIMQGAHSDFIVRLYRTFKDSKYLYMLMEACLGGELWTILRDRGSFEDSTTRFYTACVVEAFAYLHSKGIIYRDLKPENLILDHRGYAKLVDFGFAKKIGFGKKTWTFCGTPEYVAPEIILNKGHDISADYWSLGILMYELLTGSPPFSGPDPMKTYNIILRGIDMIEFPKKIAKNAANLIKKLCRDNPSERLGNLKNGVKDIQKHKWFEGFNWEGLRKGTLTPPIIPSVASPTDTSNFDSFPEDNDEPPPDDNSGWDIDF
UniProt Q00536, sequence (whole entry, looked up): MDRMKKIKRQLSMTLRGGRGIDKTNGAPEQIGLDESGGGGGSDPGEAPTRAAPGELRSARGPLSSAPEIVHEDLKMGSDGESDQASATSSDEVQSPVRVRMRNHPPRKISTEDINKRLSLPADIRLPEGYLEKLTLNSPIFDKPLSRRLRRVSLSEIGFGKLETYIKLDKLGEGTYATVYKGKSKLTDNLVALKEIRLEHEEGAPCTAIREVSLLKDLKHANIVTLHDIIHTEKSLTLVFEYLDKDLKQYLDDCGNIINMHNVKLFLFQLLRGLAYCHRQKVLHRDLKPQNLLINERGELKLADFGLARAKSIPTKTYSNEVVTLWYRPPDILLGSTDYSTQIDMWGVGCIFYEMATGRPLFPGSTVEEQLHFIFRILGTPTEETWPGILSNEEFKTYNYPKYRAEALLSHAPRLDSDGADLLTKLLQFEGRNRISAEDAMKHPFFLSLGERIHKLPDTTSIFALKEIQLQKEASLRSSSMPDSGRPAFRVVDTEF
UniProt Q96SW2, sequence (whole entry, looked up): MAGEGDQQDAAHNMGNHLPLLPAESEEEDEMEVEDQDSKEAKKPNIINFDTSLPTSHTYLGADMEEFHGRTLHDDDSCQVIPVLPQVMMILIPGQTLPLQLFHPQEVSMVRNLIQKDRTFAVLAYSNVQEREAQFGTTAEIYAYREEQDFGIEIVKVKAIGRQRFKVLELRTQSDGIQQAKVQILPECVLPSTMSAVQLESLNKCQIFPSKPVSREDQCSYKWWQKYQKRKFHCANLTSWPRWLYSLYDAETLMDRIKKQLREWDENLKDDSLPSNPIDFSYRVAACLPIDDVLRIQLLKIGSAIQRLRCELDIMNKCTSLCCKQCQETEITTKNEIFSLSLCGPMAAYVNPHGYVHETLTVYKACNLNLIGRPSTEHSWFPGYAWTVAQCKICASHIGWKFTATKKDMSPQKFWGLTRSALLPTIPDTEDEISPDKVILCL
UniProt Q9BVS4, sequence (whole entry, looked up): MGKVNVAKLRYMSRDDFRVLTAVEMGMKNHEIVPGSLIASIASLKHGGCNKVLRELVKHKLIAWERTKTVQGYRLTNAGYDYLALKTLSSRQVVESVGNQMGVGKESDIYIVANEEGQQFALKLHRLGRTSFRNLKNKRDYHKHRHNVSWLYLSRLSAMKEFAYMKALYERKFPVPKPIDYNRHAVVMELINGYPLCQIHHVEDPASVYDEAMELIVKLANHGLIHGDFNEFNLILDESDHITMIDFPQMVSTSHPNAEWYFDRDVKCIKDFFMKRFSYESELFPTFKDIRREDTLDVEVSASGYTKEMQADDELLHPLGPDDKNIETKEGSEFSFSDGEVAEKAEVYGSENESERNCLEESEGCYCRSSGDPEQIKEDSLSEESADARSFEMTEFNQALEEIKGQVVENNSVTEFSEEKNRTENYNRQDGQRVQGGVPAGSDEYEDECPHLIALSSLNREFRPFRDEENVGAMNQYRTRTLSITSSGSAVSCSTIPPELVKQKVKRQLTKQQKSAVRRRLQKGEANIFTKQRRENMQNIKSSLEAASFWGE
UniProt O96017, sequence (whole entry, looked up): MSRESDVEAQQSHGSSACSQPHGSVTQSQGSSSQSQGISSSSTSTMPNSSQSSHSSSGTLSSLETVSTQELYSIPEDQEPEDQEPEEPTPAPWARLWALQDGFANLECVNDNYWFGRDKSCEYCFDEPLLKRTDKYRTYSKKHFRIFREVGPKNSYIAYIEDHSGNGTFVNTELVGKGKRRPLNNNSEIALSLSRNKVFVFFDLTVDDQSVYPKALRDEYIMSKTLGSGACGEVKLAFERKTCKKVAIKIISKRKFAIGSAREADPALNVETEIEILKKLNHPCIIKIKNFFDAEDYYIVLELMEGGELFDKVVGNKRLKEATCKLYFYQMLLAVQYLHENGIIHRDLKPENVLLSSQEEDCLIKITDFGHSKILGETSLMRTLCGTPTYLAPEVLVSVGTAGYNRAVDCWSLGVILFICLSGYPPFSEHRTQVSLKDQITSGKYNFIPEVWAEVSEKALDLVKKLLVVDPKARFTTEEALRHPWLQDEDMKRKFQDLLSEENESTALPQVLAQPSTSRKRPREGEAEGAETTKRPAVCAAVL
UniProt Q9Y2H9, sequence (whole entry, looked up): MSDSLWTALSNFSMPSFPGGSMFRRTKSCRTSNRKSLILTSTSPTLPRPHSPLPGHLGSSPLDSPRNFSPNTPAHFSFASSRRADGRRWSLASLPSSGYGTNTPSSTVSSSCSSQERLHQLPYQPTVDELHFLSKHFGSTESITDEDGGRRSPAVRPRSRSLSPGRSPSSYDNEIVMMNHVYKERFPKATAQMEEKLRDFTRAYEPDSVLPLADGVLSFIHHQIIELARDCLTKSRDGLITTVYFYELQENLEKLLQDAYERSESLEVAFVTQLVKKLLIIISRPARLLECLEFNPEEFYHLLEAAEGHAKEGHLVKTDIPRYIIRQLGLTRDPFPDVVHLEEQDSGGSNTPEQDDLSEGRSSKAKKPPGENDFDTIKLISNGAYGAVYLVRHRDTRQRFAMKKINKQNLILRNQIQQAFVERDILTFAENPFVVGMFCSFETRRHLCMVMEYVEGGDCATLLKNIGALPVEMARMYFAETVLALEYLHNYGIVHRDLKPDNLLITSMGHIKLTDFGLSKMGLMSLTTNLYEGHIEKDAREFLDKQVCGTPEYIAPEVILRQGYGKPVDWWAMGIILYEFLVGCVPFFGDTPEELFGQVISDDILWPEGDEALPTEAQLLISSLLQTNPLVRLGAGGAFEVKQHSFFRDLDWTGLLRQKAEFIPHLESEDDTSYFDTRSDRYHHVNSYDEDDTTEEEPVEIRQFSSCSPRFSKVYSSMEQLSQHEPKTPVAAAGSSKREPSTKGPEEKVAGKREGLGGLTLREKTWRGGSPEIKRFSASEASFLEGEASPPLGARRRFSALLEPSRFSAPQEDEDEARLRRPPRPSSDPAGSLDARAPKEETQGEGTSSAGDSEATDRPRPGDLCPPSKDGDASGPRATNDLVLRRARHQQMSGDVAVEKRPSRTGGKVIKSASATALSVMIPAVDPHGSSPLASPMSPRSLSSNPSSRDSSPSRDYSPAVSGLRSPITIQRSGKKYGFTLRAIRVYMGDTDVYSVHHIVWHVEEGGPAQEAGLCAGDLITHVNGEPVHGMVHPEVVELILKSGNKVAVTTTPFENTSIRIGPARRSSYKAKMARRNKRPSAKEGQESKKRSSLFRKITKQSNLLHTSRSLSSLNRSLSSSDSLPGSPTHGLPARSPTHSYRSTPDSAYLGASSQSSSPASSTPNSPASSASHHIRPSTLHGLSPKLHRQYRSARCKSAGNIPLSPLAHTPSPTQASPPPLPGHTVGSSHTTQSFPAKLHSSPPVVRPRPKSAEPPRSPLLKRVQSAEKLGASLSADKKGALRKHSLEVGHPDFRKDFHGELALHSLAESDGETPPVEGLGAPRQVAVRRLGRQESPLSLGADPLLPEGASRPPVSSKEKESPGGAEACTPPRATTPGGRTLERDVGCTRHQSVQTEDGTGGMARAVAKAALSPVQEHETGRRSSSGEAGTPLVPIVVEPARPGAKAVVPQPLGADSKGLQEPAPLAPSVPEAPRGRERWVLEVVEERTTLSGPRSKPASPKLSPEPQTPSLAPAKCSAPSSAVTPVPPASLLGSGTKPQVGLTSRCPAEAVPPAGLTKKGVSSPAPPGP
UniProt Q14164, sequence (whole entry, looked up): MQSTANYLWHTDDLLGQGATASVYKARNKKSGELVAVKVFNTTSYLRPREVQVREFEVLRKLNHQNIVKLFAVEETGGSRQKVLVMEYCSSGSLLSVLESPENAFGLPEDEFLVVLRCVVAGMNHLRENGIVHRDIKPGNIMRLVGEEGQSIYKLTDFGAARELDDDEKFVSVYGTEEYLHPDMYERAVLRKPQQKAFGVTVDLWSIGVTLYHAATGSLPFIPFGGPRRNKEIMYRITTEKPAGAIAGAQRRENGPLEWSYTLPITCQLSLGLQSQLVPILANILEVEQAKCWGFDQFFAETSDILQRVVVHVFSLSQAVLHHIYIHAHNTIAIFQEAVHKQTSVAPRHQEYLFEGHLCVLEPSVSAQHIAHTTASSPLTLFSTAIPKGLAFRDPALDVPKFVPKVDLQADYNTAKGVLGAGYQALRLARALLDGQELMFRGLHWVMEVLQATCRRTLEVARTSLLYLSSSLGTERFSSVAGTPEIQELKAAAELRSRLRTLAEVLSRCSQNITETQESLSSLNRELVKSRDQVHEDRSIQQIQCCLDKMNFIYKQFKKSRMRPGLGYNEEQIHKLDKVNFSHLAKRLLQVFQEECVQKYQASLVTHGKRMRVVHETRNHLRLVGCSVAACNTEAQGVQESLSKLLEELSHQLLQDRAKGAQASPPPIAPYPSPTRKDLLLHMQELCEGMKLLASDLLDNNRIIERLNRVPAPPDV

Set 1 — concentration: 0.1 µM
Structure (SMILES): Cc1cc(C)c(-n2ccn3nc(-c4cccnc4)cc23)cc1NC(=O)c1cc(C#N)cc(S(F)(F)(F)(F)F)c1
| target | observed | mode | technique | relative to | remaining binding [%] |
| --- | --- | --- | --- | --- | --- |
| CSF1R (Homo sapiens, UniProt P07333) | cell-free assay |  | competition with immobilised ligand |  | 85.5 |
| FGR (Homo sapiens, UniProt P09769) | cell-free assay |  | competition with immobilised ligand |  | 84.9 |
| MAPK9 (Homo sapiens, UniProt P45984) | cell-free assay |  | competition with immobilised ligand |  | 66.1 |
| PDPK1 (Homo sapiens, UniProt O15530) | cell-free assay |  | competition with immobilised ligand |  | 100 |
| STK32C (Homo sapiens, UniProt Q86UX6) | cell-free assay |  | competition with immobilised ligand |  | 83.4 |
| MAST1 (Homo sapiens, UniProt Q9Y2H9) | cell-free assay |  | competition with immobilised ligand |  | 100 |
| MAP3K4 (Homo sapiens, UniProt Q9Y6R4) | cell-free assay |  | competition with immobilised ligand |  | 98.1 |
| RPS6KB1 (Homo sapiens, UniProt P23443) | cell-free assay |  | competition with immobilised ligand |  | 93 |
| CDK16 (Homo sapiens, UniProt Q00536) | cell-free assay |  | competition with immobilised ligand |  | 92.5 |
| FLT3 (Homo sapiens, UniProt P36888, D835V/ITD) | cell-free assay |  | competition with immobilised ligand |  | 87.7 |
| RIOK2 (Homo sapiens, UniProt Q9BVS4) | cell-free assay |  | competition with immobilised ligand |  | 74.2 |
| DAPK2 (Homo sapiens, UniProt Q9UIK4) | cell-free assay |  | competition with immobilised ligand |  | 75.8 |
| CDKL5 (Homo sapiens, UniProt O76039) | binding |  | competition with immobilised ligand |  | 100 |
| PKMYT1 (Homo sapiens, UniProt Q99640) | cell-free assay |  | competition with immobilised ligand |  | 100 |
| CDKL3 (Homo sapiens, UniProt Q8IVW4) | binding |  | competition with immobilised ligand |  | 81.2 |
| RIPK1 (Homo sapiens, UniProt Q13546) | cell-free assay |  | competition with immobilised ligand |  | 91.5 |
| PIK3CA (Homo sapiens, UniProt P42336, C420R) | cell-free assay |  | competition with immobilised ligand |  | 85.4 |
| Ribosomal protein S6 kinase alpha-3, C-terminal kinase domain (RPS6KA3, Homo sapiens, UniProt P51812) | cell-free assay |  | competition with immobilised ligand |  | 65.1 |
| DDR2 (Homo sapiens, UniProt Q16832) |  | binder | KINOMEscan competition binding | DMSO | 1.8 |
| PRKG1 (Homo sapiens, UniProt Q13976) | cell-free assay |  | competition with immobilised ligand |  | 100 |

Set 2 — observed: enzyme activity; mode: inhibitor; concentration: 0.5 µM; relative to: control
SMILES: CC(=O)O/N=C1/C(c2c(O)[nH]c3cc(Br)ccc23)=Nc2ccccc21
| target | remaining activity |
| --- | --- |
| PRKACA (Homo sapiens, UniProt P17612) | 109% |
| cGMP-dependent protein kinase 1, isoform beta (PRKG1, Homo sapiens, UniProt Q13976) | 86.1% |
| STK11 (Homo sapiens, UniProt Q15831) | 73.6% |
| CAMKK2 (Homo sapiens, UniProt Q96RR4) | 102% |
| CHEK2 (Homo sapiens, UniProt O96017) | 75.8% |
| Cyclin-dependent kinase 5, with p25 (CDK5, Homo sapiens, UniProt Q00535) | 51.4% |
| IKBKE (Homo sapiens, UniProt Q14164) | 81.4% |

Set 3 — technique: protein-binding microarray; form: double-stranded DNA, one strand shown; medium: in vitro; concentration: 250 nM; setting: 60-bp whole probe; added: salmon DNA 0.4 mg/ml; relative to: random background probes; reading: higher = stronger binding; shared flanks, not repeated: GCCTAGCAC … GTCTTGATTCGCTTGACGCTGCTG
Target: Interferon regulatory factor 7, full length, phosphomimetic (IRF7, Homo sapiens, UniProt Q92985, residues 1-503, S101K/S471D/S472D/S475D/S476D/S477D/S483D/S484D/S487D)
Target sequence (chain): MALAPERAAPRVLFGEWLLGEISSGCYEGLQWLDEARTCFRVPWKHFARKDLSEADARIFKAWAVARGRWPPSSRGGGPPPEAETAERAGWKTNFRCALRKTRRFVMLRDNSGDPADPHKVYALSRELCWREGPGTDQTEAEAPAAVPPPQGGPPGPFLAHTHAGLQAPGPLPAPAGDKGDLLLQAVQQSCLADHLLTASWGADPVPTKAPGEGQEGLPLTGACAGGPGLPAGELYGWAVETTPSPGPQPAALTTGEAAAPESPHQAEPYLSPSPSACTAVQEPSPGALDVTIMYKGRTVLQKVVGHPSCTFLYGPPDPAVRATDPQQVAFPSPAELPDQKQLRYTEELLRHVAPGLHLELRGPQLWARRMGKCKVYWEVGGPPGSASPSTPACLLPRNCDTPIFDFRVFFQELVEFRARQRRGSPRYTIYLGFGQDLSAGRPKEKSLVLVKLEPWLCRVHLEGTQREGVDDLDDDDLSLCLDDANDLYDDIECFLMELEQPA
| Oligonucleotide | log fluorescence |
| --- | --- |
| GACGGTTCCGGTTTCGGGAAGTGCTAG | 7.18 z-score |
| TTAAGACTGCTTATCCTTTAGTGCTAG | 0.0729 z-score |
| ATAGGTATCGACACTGGGTTAGTGCTA | -0.16 z-score |
| TGAGATATCGGGTATCGATTAGTGCTA | 0.62 z-score |
| GACGGACTGGTGTATCGGGACGTGCTA | -0.773 z-score |
| TCAAGTATGTTCCTTATTACTGTGCTA | 0.904 z-score |
| TCAACTCTCTGGGCTGTGACTGTGCTA | -0.492 z-score |
| CTGCAGCCCACTCCTGAACAGTGCTAG | -1 z-score |

Set 4 — host: mouse; medium: microsomes or S9; concentration: 2 µM; time: 0.5 h
| SMILES | remaining compound [%] |
| --- | --- |
| O=S(=O)(CCC1Cc2ccccc2C1)N1CCN(c2cccc(O)c2)CC1 | 3.59 |
| O=C(C1CCCC1)N1CCn2c(nnc2-c2ccccc2)C1 | 2.52 |
| C[S+]([O-])c1nc(-c2cccs2)cc(-c2ccccc2)c1C#N (stereo not drawn) | 2.55 |
| O=C1C(N2CCC3(CCOCC3)C2)CCN1c1cccc(Cl)c1 (stereo not drawn) | 14.8 |
| COc1ccc(OCCc2c(O)nc(C)c(Br)c2O)cc1Br | 1.86 |

Set 5 — technique: LC-MS/MS; host: human; medium: plasma; route: oral
SMILES: COc1ccc(-c2c(Nc3ccccn3)[nH]c3c(C4=CCCCC4)c(-c4ccccc4)nn3c2=O)cc1
| dose | AUC extrapolated fraction, observed |
| --- | --- |
| 400 mg once daily | 18% and 39.9% and 48.2% and 47.6% |
| 100 mg once daily | 56.2% and 98.5% and 92.9% and 33.7% |
| 50 mg once daily | 68.5% |

Other studies, line by line
| Compound | target | assay | system | setting | quantity | value |
| --- | --- | --- | --- | --- | --- | --- |
| CN1CCC[C@H]1COc1nc2c(c(N3CCN(S(C)(=O)=O)[C@@H](CC#N)C3)n1)CCN(c1cccc3cccc(Cl)c13)C2 | GTPase KRas (KRAS, Homo sapiens, UniProt P01116, G13D) | target engagement in cells, BRET |  |  | IC50 | 820 nM |
| O=C1CCC(N2Cc3c(ccc4c3OCCC43CCN(Cc4ccccc4)CC3)C2=O)C(=O)N1 (stereo not drawn) | CRBN/Zinc finger protein Helios (Homo sapiens, UniProt Q96SW2+Q9UKS7) | degrader, HiBiT | HEK293 | 13.72 nM | protein remaining | 80.7% |

A few entries again (set 2):
| target | remaining activity |
| --- | --- |
| cGMP-dependent protein kinase 1, isoform beta (PRKG1, Homo sapiens, UniProt Q13976) | 86.1% |
| STK11 (Homo sapiens, UniProt Q15831) | 73.6% |
| CAMKK2 (Homo sapiens, UniProt Q96RR4) | 102% |
| CHEK2 (Homo sapiens, UniProt O96017) | 75.8% |
| Cyclin-dependent kinase 5, with p25 (CDK5, Homo sapiens, UniProt Q00535) | 51.4% |
